Measured values pooled from the literature.
Compare with care: the assays were run in different laboratories.
TDP1: Tyrosyl-DNA phosphodiesterase 1 (TDP1, Homo sapiens, UniProt Q9NUW8)
Sequence of UniProt Q9NUW8 (whole entry, looked up): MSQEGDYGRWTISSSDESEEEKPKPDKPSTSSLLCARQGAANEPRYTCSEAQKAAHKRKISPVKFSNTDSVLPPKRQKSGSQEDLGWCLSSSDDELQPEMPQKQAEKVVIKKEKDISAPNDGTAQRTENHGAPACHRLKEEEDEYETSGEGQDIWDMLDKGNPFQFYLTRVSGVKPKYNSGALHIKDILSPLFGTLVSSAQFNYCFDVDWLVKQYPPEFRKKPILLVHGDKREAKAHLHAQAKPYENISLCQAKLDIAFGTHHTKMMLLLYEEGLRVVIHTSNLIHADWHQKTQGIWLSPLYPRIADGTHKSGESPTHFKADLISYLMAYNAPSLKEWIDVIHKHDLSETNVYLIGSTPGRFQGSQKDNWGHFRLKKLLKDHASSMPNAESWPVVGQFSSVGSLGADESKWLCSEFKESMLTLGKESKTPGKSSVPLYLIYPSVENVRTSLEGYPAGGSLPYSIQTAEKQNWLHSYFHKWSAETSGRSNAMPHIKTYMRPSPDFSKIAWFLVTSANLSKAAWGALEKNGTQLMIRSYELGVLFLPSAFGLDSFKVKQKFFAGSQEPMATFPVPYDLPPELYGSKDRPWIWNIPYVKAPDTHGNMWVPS

For `C=CC(=O)N1[C@H](c2ccc3c(c2)OCO3)c2[nH]c3ccccc3c2C[C@@H]1C(=O)N1CCN(C)CC1`, the relative co-enrichment was 123% (human cyclin E1 N112C-3xFLAG:CDK2; co-IP with TMT proteomics, refers to: PPIB; concentration not given; baseline: wild type DMSO).
`Cc1ncsc1-c1ccc(C(C)NC(=O)C2CC(O)CN2C(=O)C(NC(=O)CCCCCCCCCCN2CCCC(Nc3ncc(Cl)c(Nc4ccccc4S(=O)(=O)C(C)C)n3)C2)C(C)(C)C)cc1` (centres unmarked): “log2 fold change” -1.97 (22Rv1; RNA-seq, refers to: MTHFSD mRNA; concentration not given; baseline: DMSO).
`CNS(=O)(=O)Nc1nccc(Cc2c(C)c3ccc(Oc4ncccc4F)cc3oc2=O)c1F` has an IC50 of > 1000 nM (NCI-H2342; cell viability; 7 days).
`c1ccc(-c2n[nH]cc2-c2ccnc3ccccc23)nc1` — result for “log2 fold change”: -0.24 (IKS1 (Candida albicans); kinase binding, MIB/MS competition; Candida albicans lysate; 10 µM; baseline: DMSO).
`CN1CCCNC(=O)c2cccc(c2)C(=O)NCCCN(C)CCCNc2cccc3c2C(=O)c2cccc(c2C3=O)NCCC1`: “log2 fold change” -0.717 (SAS; RNA-Seq, refers to: SFSWAP mRNA; 1 µM, 6 h; baseline: untreated cells).
With `Nc1ncc(-c2cc(-c3cnn(CC(F)(F)F)c3)ncc2F)nc1C(=O)NC1CNCC(F)C1` (centres unmarked) the remaining binding was 42% (MST4; KINOMEscan; 1 µM; baseline: DMSO control).
`C=CC(=O)Nc1cccc(Cn2ncc3cnc(Nc4cnn(CCOC)c4)nc32)c1` gave a binding of 100% (human p38-delta; KINOMEscan; 100 nM; baseline: control).
The inhibition of `O=C(O)c1ccc(Nc2c(-c3ccc(CON=Cc4c(F)cccc4Oc4ccccc4)cc3)nc3cc(-c4ccccc4)ccn23)cc1` is reported as 73% (TDP1; enzyme activity, inhibitor; 100 µM, unpurified compound).
Under “log2 fold change”, `Cn1ncc2cc(-c3cncc(Cl)c3N3CCC4(CCNC4=O)CC3)ccc21` is recorded as -2.63 (LS174T; gene expression, microarray, refers to: TNFRSF12A (FN14) mRNA; concentration not given, 24 h; baseline: untreated cells).
`CC1CN(c2ccc(C=NOCc3ccc(-c4nc5cc(-c6ccccc6)ccn5c4Nc4ccc(C(=O)O)cc4)cc3)cc2[N+](=O)[O-])CCO1` (centres unmarked) gave an inhibition of 12.2% (TDP1; enzyme activity, inhibitor; 100 µM, unpurified compound).
`COC1CN([C@H]2CC[C@H]([C@@]3(C)Oc4c(Cl)cc(C(=O)NCc5c(SC)cc(C)[nH]c5=O)c(C)c4O3)CC2)C1`: “log2 fold change” 0.105 (RNA-seq, refers to: LETM2 mouse homolog; mouse, HT-1376 xenograft, whole blood; dose not given; baseline: vehicle).

A few entries again:
The inhibition of `O=C(O)c1ccc(Nc2c(-c3ccc(CON=Cc4c(F)cccc4Oc4ccccc4)cc3)nc3cc(-c4ccccc4)ccn23)cc1` is reported as 73% (TDP1; enzyme activity, inhibitor; 100 µM, unpurified compound).
`C=CC(=O)Nc1cccc(Cn2ncc3cnc(Nc4cnn(CCOC)c4)nc32)c1` gave a binding of 100% (human p38-delta; KINOMEscan; 100 nM; baseline: control).
